Assay results of several laboratories.
Parts stem from different laboratories: compare values within a part only. “And” joins repeats or separate records; there may be more than shown.
Sequence of UniProt P42336 (whole entry, unmodified, looked up): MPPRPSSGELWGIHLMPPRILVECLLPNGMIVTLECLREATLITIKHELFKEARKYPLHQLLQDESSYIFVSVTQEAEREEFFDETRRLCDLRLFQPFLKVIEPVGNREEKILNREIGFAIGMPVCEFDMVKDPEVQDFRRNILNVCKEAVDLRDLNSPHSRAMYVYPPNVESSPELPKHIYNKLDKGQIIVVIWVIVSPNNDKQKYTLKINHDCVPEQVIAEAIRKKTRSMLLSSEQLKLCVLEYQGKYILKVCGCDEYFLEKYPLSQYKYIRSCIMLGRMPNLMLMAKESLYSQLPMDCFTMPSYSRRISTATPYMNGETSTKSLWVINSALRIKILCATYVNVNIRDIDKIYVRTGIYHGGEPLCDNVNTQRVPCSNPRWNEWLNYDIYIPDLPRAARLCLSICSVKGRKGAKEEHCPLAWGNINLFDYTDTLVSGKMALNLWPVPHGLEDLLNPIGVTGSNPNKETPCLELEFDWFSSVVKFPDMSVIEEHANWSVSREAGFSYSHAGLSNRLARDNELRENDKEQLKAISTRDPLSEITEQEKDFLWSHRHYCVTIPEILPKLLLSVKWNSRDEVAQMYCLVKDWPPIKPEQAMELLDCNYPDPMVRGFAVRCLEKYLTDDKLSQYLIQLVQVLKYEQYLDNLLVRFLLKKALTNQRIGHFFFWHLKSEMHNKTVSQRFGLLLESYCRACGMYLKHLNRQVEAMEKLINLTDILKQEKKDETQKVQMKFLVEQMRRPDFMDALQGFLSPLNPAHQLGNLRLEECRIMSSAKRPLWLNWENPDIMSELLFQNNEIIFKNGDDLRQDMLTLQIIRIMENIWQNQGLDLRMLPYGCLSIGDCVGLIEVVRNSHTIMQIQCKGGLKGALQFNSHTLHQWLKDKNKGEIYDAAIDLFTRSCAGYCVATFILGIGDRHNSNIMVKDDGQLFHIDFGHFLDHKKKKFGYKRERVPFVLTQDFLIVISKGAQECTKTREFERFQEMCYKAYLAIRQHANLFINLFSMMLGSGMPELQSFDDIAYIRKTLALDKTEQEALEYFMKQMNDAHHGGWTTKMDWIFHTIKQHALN
Sequence of UniProt Q13523 (whole entry, looked up): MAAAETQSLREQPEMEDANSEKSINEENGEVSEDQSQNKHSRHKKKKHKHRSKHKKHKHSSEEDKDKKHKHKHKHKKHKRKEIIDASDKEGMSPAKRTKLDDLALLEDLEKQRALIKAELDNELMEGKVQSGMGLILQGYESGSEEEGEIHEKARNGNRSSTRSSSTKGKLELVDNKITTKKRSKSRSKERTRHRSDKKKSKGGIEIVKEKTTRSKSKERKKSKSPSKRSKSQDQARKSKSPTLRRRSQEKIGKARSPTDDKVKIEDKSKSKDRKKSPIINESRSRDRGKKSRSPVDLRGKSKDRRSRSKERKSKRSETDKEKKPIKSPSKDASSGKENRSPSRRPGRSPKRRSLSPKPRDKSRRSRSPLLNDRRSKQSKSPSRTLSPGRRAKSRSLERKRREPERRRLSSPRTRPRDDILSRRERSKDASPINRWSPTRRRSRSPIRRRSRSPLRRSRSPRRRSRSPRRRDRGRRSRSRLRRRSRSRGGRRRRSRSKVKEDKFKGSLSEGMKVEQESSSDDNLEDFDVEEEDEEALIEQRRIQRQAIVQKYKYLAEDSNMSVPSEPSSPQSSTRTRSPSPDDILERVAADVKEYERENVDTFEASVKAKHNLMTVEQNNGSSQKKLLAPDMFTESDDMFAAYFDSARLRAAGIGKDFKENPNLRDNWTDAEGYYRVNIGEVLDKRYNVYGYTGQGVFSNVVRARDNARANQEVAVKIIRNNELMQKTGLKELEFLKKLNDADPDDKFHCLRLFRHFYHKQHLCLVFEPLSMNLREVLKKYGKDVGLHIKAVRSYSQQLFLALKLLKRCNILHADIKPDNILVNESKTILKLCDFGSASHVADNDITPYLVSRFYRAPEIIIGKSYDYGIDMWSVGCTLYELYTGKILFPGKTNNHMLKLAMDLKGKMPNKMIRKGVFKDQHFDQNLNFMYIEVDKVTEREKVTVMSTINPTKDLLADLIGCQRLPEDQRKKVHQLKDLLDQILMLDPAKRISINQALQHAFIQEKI
Sequence of UniProt P78368 (whole entry, looked up): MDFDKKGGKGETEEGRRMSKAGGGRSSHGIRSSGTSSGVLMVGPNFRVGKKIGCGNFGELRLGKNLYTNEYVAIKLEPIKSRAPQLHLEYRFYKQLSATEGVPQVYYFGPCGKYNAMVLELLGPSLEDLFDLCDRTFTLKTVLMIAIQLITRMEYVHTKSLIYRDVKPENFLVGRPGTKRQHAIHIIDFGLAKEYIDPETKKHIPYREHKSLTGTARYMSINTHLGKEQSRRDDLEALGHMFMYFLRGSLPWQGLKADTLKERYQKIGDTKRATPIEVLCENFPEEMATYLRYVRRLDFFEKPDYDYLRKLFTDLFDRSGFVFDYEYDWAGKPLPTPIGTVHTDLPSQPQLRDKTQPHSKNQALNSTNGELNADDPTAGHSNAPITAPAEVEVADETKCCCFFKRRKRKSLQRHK
Sequence of UniProt O43353 (whole entry, looked up): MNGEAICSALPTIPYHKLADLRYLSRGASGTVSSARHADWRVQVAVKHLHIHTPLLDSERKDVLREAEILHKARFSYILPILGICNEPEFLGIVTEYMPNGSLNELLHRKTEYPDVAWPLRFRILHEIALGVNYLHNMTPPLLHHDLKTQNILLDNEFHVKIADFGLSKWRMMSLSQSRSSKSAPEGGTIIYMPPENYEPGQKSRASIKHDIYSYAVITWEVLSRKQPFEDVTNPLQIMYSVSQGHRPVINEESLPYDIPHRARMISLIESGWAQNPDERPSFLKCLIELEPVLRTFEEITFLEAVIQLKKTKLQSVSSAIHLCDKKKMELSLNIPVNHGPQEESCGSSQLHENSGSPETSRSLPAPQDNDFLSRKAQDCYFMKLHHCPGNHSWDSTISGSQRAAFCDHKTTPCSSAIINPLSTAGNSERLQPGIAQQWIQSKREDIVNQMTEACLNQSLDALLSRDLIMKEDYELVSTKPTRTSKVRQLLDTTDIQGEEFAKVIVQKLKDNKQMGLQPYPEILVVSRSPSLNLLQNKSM
Sequence of UniProt P25098 (whole entry, looked up): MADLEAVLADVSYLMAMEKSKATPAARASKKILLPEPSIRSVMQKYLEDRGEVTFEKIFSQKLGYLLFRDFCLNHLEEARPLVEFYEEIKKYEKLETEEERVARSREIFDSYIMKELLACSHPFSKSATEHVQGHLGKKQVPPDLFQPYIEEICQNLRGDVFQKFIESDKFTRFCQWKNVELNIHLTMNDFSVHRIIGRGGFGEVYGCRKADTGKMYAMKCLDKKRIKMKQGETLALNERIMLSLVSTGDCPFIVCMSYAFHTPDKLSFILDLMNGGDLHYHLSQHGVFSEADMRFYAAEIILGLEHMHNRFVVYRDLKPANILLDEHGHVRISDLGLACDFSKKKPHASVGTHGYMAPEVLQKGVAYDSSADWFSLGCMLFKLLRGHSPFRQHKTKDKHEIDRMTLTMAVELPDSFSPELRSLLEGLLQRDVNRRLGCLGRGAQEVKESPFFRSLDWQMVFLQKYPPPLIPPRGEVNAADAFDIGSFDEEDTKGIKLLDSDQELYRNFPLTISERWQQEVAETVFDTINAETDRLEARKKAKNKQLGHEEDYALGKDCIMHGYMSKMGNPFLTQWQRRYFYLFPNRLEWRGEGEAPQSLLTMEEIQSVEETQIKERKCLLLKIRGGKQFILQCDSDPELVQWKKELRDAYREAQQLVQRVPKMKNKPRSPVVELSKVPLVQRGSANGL
Sequence of UniProt Q9HCP0 (whole entry, looked up): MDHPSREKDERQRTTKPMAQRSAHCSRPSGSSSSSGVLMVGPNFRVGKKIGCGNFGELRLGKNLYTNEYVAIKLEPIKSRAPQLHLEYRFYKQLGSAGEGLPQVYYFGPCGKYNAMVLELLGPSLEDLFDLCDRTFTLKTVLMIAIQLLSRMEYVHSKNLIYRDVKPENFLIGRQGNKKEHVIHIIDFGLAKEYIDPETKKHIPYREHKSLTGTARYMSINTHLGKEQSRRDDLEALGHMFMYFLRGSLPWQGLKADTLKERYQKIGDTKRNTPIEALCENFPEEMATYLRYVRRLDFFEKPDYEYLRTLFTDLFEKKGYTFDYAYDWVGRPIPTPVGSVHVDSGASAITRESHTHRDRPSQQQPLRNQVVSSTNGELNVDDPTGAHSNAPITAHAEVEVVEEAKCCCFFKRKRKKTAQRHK
Sequence of UniProt P15056 (whole entry, looked up): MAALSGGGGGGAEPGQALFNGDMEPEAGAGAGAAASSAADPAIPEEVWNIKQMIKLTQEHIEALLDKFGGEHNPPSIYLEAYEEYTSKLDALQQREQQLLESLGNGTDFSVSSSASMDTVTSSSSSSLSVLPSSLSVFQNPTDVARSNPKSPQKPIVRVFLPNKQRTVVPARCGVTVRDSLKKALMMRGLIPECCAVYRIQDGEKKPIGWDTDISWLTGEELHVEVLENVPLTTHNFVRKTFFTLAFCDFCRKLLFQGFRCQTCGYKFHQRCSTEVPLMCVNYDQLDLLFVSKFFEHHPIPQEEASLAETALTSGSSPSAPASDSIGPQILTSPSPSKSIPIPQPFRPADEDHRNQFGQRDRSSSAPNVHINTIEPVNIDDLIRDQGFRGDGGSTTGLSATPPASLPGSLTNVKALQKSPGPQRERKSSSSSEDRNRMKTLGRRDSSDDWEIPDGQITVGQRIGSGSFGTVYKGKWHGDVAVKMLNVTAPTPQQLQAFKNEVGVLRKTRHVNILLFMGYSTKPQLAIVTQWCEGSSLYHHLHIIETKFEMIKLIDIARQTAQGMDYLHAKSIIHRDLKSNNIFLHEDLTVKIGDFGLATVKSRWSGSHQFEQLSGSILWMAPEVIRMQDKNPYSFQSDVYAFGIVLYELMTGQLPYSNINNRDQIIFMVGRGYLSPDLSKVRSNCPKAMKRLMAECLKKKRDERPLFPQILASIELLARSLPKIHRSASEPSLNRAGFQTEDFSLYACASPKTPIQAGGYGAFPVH

Block 1 — technique: competition with immobilised ligand; concentration: 1 µM; quantity: remaining binding
SMILES: CS(=O)(=O)NCC[C@H](NC(=O)c1cncc2c1cnn2-c1ccc(F)cc1)c1ccnc(S(C)(=O)=O)c1
CSNK1G1 (Homo sapiens, UniProt Q9HCP0); cell-free assay: 91%
RET (Homo sapiens, UniProt P07949, V804M); cell-free assay: 96%
CDK11B (Homo sapiens, UniProt P21127); cell-free assay: 100%
LIM domain kinase 1 (LIMK1, Homo sapiens, UniProt P53667); cell-free assay: 100%
IGF1R (Homo sapiens, UniProt P08069); cell-free assay: 100%
MAP3K7 (Homo sapiens, UniProt O43318); cell-free assay: 100%
RIPK2 (Homo sapiens, UniProt O43353); cell-free assay: 100%
GRK2 (Homo sapiens, UniProt P25098); cell-free assay: 100%
CSNK1G2 (Homo sapiens, UniProt P78368); cell-free assay: 89%
BRAF (Homo sapiens, UniProt P15056); cell-free assay: 79%
PIK3CA (Homo sapiens, UniProt P42336, H1047L); cell-free assay: 77%
STK17B (Homo sapiens, UniProt O94768); cell-free assay: 100%
Ribosomal protein S6 kinase alpha-5, C-terminal kinase domain (RPS6KA5, Homo sapiens, UniProt O75582); cell-free assay: 100%
TEC (Homo sapiens, UniProt P42680); binding: 96%
PTK2B (Homo sapiens, UniProt Q14289); cell-free assay: 84%
PLK3 (Homo sapiens, UniProt Q9H4B4); cell-free assay: 100%
SGK1 (Homo sapiens, UniProt O00141); cell-free assay: 100%
EPHB3 (Homo sapiens, UniProt P54753); cell-free assay: 100%
PRPF4B (Homo sapiens, UniProt Q13523); cell-free assay: 69%

Block 2 — read-out: binding; technique: competition with immobilised ligand; concentration: 1 µM; quantity: remaining binding
Structure (SMILES): COc1ccc2[nH]c3c4[nH]c5ccc(OC)cc5c4c4c(c3c2c1)C(=O)NC4=O
Tyrosine-protein kinase ABL1, non-phosphorylated (ABL1, Homo sapiens, UniProt P00519): 58%
Ribosomal protein S6 kinase alpha-2, N-terminal kinase domain (RPS6KA2, Homo sapiens, UniProt Q15349): 28%
MAPK13 (Homo sapiens, UniProt O15264): 86%

Block 3 — species: human; medium: microsomes or S9; concentration: 2 µM; time: 0.5 h; quantity: remaining compound
Cc1cnc(C2CC2)n1CCNC(=O)c1ccccn1: > 100%
Brc1ccc(-c2c[nH]c(CNc3nncn3-c3ccccc3)n2)cc1: 50.9%
COC(=O)C1(C(=O)OC)C(CC(=O)c2ccc(C)cc2)c2cc(N(C)C)ccc2C(c2ccccc2)N1S(=O)(=O)c1ccc(C)cc1 (stereo not shown): 23.8%

Block 4 — cell line: mouse MPNST tumor cells; technique: high-content immunofluorescence imaging; refers to: nuclear SOX9; concentration: 10 µM; time: 12 h; notes: mean of 2 replicates; relative to: DMSO control; reading: higher = more nuclear SOX9; quantity: nuclear SOX9 intensity
O=C(NCCNCC(O)COc1ccc(O)cc1)N1CCOCC1 (stereo not shown): 95.3 % of DMSO and 111 % of DMSO
Cc1ccc(-n2sc(=O)n(Cc3ccc(F)cc3)c2=O)cc1: 103 % of DMSO
CC(C)N1CCN(S(=O)(=O)c2ccc(NC(=O)c3ccc(C(F)(F)F)cc3[N+](=O)[O-])cc2)CC1: 113 % of DMSO

Block 5 — organism: Leishmania donovani; strain: DD8; medium: promastigotes; quantity: inhibition
SMILES: c1ccc(Oc2ccc(Nc3c4c(nc5ccccc35)CCC4)cc2)cc1
parasite viability, resazurin; 16.66 µM: 100%
parasite killing; 3.33 µM, 48 h: 91% and 89% and 96%
parasite killing; 66.66 µM, 48 h: 100%

Block 6 — organism: Sarcocystis neurona; read-out: parasite growth; concentration: concentration not given; notes: first screen; relative to: untreated; quantity: log2 fold change
CN(Cc1cnc2nc(N)nc(N)c2n1)c1ccc(C(=O)N[C@@H](CCC(=O)O)C(=O)O)cc1.O: -0.07
CN1[C@@H](CC(=O)c2ccccc2)CCC[C@H]1C[C@H](O)c1ccccc1.Cl: 0.0121
CC[N+](C)(CC)CCOC(=O)C(O)(c1ccccc1)C1CCCCC1.[Br-] (stereo not shown): -0.24

Block 7 — technique: phase 2a trial; quantity: patients with TEAE
Compound: CC(C)n1cnc(-c2ccc(F)cc2)c1-c1ncc(C(=O)Nc2ccc(N3CCN(C)CC3)cc2)[nH]1
idiopathic pulmonary fibrosis patients; oral, dose not given, urine red cells, grade 3, all arms: 0%
patients with idiopathic pulmonary fibrosis; 60 mg once daily, atopic dermatitis, grade 5: 0%
patients with idiopathic pulmonary fibrosis; dose not given, free thyroxine decreased, grade 3, all arms: 0%

Single results of other studies
O=C(COc1ccc(Cl)cc1)NC1CCC(NC(=O)COc2ccc(Cl)cc2)CC1 (stereo not shown)
reporter signal (HEK293T ATF4-firefly luciferase reporter; integrated stress response, refers to: ATF4; concentration not given; relative to: DMSO): 61.8% and 76.4% and 68.3% and 69.8% and 60.8% and 65.6% and 72.6%

O=C1CCC(N2Cc3cc(C4CCN(Cc5ccccc5)CC4)ccc3C2=O)C(=O)N1 (stereo not shown)
proliferating CD8+ Teff cells (human Treg:Teff co-culture; concentration not given, Treg suppression): 87.5% and 64.5% and 86.9% and 45% and 89.6% and 62.5%

CN(C(=O)c1ccn2ncc(-c3ccc(C(N)=O)cc3)c2c1)c1ccc(C#N)cn1
luminescence remaining (Cryptosporidium parvum; time-kill; HCT-8, nanoluciferase-expressing; 2.222 µM, 72 h; relative to: DMSO control): 10.4% and 11%

A few entries again (block 1):
MAP3K7 (Homo sapiens, UniProt O43318); cell-free assay: 100%
CSNK1G1 (Homo sapiens, UniProt Q9HCP0); cell-free assay: 91%
PLK3 (Homo sapiens, UniProt Q9H4B4); cell-free assay: 100%
